Measured values from different studies.
Parts stem from different laboratories: compare values within a part only.

Block 1 — technique: RNA Bind-n-Seq; form: RNA; matrix: in vitro; tested at: 200 nM; notes: whole 134-nt RNA, ends assumed; together with: 150 mM LiCl; reference: input library; direction: higher = stronger binding; each molecule: 7-deaza-guanosine replaces G
Target: Fragile X messenger ribonucleoprotein 1, C-terminal low-complexity region (Fmr1, Mus musculus, UniProt P35922)
Shared flanks, not repeated: GGGAGUUCUACAGUCCGACGAUC … UGGAAUUCUCGGGUGUCAAGG
`UCAAGUCCUGUGCUACACAUCGUAUGUACCGAAUCGGAAAGGUUUUUUUGGUGGAAAGUAUUAUGUUACGCCGUUCGGAUCUGCACUUCC` has a log2 enrichment of -1.15.
For `UCAAGUCCUGUGCUACACAUCGUAUGUACCGAAUCGGGAAAGGGUGGGUUUGGGAAAGUAUUAUGUUACGCCGUUCGGAUCUGCACUUCC`, the log2 enrichment was -1.48.
`CUGAAGAGUCUGAGGAUGCCCAAUCACAGAGCCAAGCAGAUGAAGAGGAGGAAGAUGAUGAUUUUGGGGUGGAGUACUUGCUUGCCAGGG` has a log2 enrichment of -0.977.
`CCUCAAGUCCUGUGCUACACAUCGUAUGUACCGAAUCGGGAGGGAGGGGAGGGAAAGUAUUAUGUUACGCCGUUCGGAUCUGCACUUCCA` gave a log2 enrichment of -1.26.
`CACAGACAACACGCACCCACACAGACACAGAGGGAAGGGGUUGGGAUGGGGACAGGGUGCACAGCAAAACGGGGUAGGACCCCAGCCCCU` has a log2 enrichment of 0.1.
With `CACAGACAACACGCACCCACACAGACACAGAGGGAAGGGCUUGGGAUGGGGACAGGGUGCACAGCAGGGCGGGGUAGGACCCCAGCCCCU` the log2 enrichment was -0.747.
With `UGGAUCAAGAGGAAGUAAAAAGAAUUACCAGUCACAGGCUGACAUUCCCAUUCGGUCUCCCUUUGGUAUUGUGAAAGCAUCCUGGCUACC` the log2 enrichment was 0.274.
With `CACAGACAACACGCACCCACACAGACAAAGAGGGAAGGGGUUGGGAUGGGGACAGGGUGCACAGCAGGGCGGGGUAGGACCCCAGCCCCU` the log2 enrichment was 0.206.

Block 2 — technique: RNA Bind-n-Seq; form: RNA; matrix: in vitro; tested at: 365 nM; reference: no-protein control; direction: higher = stronger binding
Target: RNA binding protein fox-1 homolog 2, RRM domain, GST-SBP tag (RBFOX2, Homo sapiens, UniProt O43251-10, residues 100-194)
Notes: natural RNA segment, single round, ends assumed
Shared flanks, not repeated: GGGAGUUCUACAGUCCGACGAUC … UGGAAUUCUCGGGUGCCAA
Residues (chain): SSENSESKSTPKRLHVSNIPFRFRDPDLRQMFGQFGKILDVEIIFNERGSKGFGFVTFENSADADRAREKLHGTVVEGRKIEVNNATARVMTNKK
`UAAUGUAAUUUAGUUAGAAUGCCAGAAGGAGAACACUAUUUUCAUACCCUACUUUUUCUGUACCUAAAUUUUCUUAAUAAAAUUUAGUAUAGCACUACAUUCUUUUUUAA`: “RBNS enrichment (R)” 0.813.
Under “RBNS enrichment (R)”, `CCAGUGGAGGCUUGAAUGCCCUCAGAAACGACCCUGGCCAAUGUCACCGCAGAGCCGAGGCGGUGUUGUCAGGGCUAAUGUGAAAUCUCUUCCCGUGGCGCCGAUCCUCU` is recorded as 0.609.
Under “RBNS enrichment (R)”, `GCUUCUGAUUGCAAAUUUCAGAGGCCUGGCGACCCUCAGUCAGCUCAGGAUAAAGCACGGAUGGAUAAAGAAUAUUUGUCCCUUAUGGCUGAGCUAGGGGAAGCUCCUGU` is recorded as 0.498.
`UGCCGUUCUGACCUGGGACUGGGCCACUUCUUCAGUUCCUAAUGCCAGGCCUGGCCUCCUGAUGCCUUUUGCAUUGCAGCUGUGUGUUUGAAAACUGAGACUCACAUCCA` — result for “RBNS enrichment (R)”: 0.534.
Under “RBNS enrichment (R)”, `AGGAGAGGUGGGAAAGGACACACUGCCACGAGAAACCACCCGACGGCUGGAGAGGUGGCUCAGUGGUUAAAGGCACUCACUGCUCUUUCCAAAGGACCUGGUUUGAUUCC` is recorded as 0.497.
`GGAUUUGGGGAGGGCCCUGAGGACCUGGCCCCGGGCAAGGGACUCUCCAGGCUCCUCCUCCCCCUGGCAGGCCCAGCAACAUGUGCCCCAGAUCUGGAAGGGCCUCCCUC` — result for “RBNS enrichment (R)”: 0.229.
For `GCAGAGACAUAGUACCGAGCUGGGCUCCCGCCUUCAUGGAGCUCGUCCAGAAGCCCUGGCACAGAAGUUCUUGGCCAGUCUCAUGUCACAUGUCACGAUGUCAGAUUCAA`, “RBNS enrichment (R)” read 0.277.
Under “RBNS enrichment (R)”, `UGUGGCCUUUUUUUCAUUUAGCCAUUGCACAGUCAGCUGCAGAAGUCCUGCUGACCACCUAGUCAUGGACAAAGGCCCAGGACCAGUGACACCCUGCGUCCCUGUGUGCA` is recorded as 0.445.

Block 3 — technique: protein binding microarray; form: double-stranded DNA, one strand shown; matrix: in vitro; tested at: not given; reference: not given; direction: higher = stronger binding
Target: Histone acetyltransferase KAT6A, both winged helices, GST fusion (KAT6A, Homo sapiens, UniProt Q92794, residues 1-181)
Notes: 8-mer, flanks averaged, mean of 2 arrays, mostly near background
Construct (chain): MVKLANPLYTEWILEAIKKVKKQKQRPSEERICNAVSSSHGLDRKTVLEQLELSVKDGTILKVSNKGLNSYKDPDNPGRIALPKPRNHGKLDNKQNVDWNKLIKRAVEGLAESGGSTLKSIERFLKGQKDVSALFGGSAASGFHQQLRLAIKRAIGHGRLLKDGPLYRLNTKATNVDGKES
`AGCATGCG` gave an E-score of 0.169.
With `AGTTCTGC` the E-score was 0.12.
With `AGTATGGA` the E-score was -0.138.
With `CCGCTTGA` the E-score was 0.276.
`CATATTCA` has an E-score of -0.0609.
For `CGTTAACC`, the E-score was 0.103.
`ATTGAAGC` gave an E-score of -0.0721.
`ACTCGGAG` has an E-score of -0.101.
For `CCAAAAGC`, the E-score was 0.0774.
`ATCTCTGG` has an E-score of -0.184.
`CGTGCGTA` gave an E-score of 0.248.
`CCCGTAGG` gave an E-score of 0.222.
With `AAAAGAAG` the E-score was -0.131.
`AAAGTAAG` gave an E-score of -0.119.
With `ACGTGCAG` the E-score was -0.122.
For `GTCCATCA`, the E-score was -0.101.
With `AGACAAGA` the E-score was -0.0854.
`TCACGTAA` gave an E-score of -0.0946.
`TCGTGGAA` gave an E-score of -0.0972.
`GCTGCGTA` gave an E-score of 0.0867.
`AGGCGTCA` gave an E-score of 0.0294.

Block 4 — technique: universal PBM; form: double-stranded DNA, one strand shown; matrix: in vitro; tested at: not given; direction: higher = stronger binding
Target: Sal-like protein 4, full length isoform B (SALL4, Homo sapiens, UniProt Q9UJQ4-2, residues 1-616)
Notes: 8-mer, flanks averaged, mean of replicates
`CCCGGGAG` has an E-score of -0.391.
The E-score of `CAAGCGTC` is reported as -0.21.
With `CCACGAGG` the E-score was -0.211.
For `ACTTTGTG`, the E-score was 0.0997.
For `CGAACAAG`, the E-score was -0.163.
`AGCTCGGG` gave an E-score of -0.29.
With `AATTGAGG` the E-score was 0.0341.
`CCGAGACA` gave an E-score of -0.185.
The E-score of `CTATTGGC` is reported as -0.0367.
With `AATGTGTC` the E-score was 0.0669.
`TCCATTCA` gave an E-score of 0.108.
`CAAGCGAA` gave an E-score of -0.113.
For `CATGCTCC`, the E-score was -0.128.
For `ACTCATGC`, the E-score was -0.0301.
`AGTGGAGA` gave an E-score of -0.0146.
The E-score of `CCAAGGCC` is reported as -0.197.
The E-score of `ACGCACGA` is reported as 0.0691.
For `GAGTTGAC`, the E-score was -0.138.
`CAGCGGAG` gave an E-score of -0.311.
`CTGAGAAC` has an E-score of -0.114.
For `AGATGAAG`, the E-score was 0.0376.
With `GATGCACA` the E-score was -0.0258.
`GGGGCTAA` has an E-score of -0.172.
`ATCTATAA` gave an E-score of 0.387.

Block 5 — technique: protein-binding microarray; form: double-stranded DNA, one strand shown; matrix: in vitro; tested at: not given; direction: higher = stronger binding
Target: Transcriptional repressor CTCF (CTCF, Homo sapiens, UniProt P49711, residues 1-727, full length assumed)
Sequence of UniProt P49711 (whole entry, looked up): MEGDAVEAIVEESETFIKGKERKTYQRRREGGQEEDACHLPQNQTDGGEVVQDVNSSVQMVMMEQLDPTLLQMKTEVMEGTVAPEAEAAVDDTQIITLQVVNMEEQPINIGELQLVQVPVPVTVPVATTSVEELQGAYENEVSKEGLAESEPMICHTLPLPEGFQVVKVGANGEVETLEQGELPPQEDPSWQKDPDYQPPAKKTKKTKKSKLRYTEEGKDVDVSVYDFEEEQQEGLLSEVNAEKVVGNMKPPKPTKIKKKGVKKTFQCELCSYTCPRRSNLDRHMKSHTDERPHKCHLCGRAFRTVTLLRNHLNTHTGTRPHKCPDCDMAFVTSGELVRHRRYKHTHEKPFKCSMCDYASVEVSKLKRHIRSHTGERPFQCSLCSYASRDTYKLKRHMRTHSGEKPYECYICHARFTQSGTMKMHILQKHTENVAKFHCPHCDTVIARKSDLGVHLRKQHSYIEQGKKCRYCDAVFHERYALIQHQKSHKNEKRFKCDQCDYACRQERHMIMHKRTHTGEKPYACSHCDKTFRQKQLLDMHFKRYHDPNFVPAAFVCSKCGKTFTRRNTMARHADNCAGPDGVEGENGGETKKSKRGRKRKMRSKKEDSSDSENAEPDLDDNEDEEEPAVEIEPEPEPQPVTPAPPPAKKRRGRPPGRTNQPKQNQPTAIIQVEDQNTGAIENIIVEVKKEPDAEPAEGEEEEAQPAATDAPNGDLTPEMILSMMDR
Notes: k-mer, scored over probes, only values ≥0.25
With `ATTATGTA` the E-score was 0.328.
`AATATTTG` has an E-score of 0.263.
`AGCGCCCC` has an E-score of 0.387.
With `TCTTATAA` the E-score was 0.267.
`TAATACAA` has an E-score of 0.352.
The E-score of `GCGATATA` is reported as 0.295.
`GATTGCAC` gave an E-score of 0.287.
`AAAATTTT` gave an E-score of 0.311.
`GAATATTC` has an E-score of 0.269.
The E-score of `TAATTATA` is reported as 0.338.
With `GCATGATA` the E-score was 0.297.
The E-score of `ATACCACC` is reported as 0.254.
`TATTGTAA` gave an E-score of 0.278.
With `ATTGCATG` the E-score was 0.259.
For `CGCATATC`, the E-score was 0.319.
`CATGATAA` gave an E-score of 0.287.
`AAATATTA` gave an E-score of 0.321.

Excerpt of the above (block 4):
For `CATGCTCC`, the E-score was -0.128.
For `ACTCATGC`, the E-score was -0.0301.
`AGTGGAGA` gave an E-score of -0.0146.
The E-score of `CCAAGGCC` is reported as -0.197.
The E-score of `ACGCACGA` is reported as 0.0691.
For `GAGTTGAC`, the E-score was -0.138.
`CAGCGGAG` gave an E-score of -0.311.
`CTGAGAAC` has an E-score of -0.114.
For `AGATGAAG`, the E-score was 0.0376.
With `GATGCACA` the E-score was -0.0258.
`GGGGCTAA` has an E-score of -0.172.
